Measurements pooled from the literature.
Parts stem from different laboratories: compare values within a part only. Positions count from the first letter of the parent shown.

Study 1
Target: RING finger protein unkempt homolog, zinc fingers 1-6, GST-SBP tag (UNK, Homo sapiens, UniProt Q9C0B0, residues 30-357)
Method: RNA Bind-n-Seq
Form: RNA
Matrix: in vitro
Concentration: not given
Notes: RNA with constant flanks, human-mouse chimeric sites, ends assumed
Relative to: input RNA pool
Reading: higher = stronger binding
Shared flanks, not repeated: GGGAGUUCUACAGUCCGACGAUC … CAACAGAGGAUUGAGCAUCA
Target sequence (chain): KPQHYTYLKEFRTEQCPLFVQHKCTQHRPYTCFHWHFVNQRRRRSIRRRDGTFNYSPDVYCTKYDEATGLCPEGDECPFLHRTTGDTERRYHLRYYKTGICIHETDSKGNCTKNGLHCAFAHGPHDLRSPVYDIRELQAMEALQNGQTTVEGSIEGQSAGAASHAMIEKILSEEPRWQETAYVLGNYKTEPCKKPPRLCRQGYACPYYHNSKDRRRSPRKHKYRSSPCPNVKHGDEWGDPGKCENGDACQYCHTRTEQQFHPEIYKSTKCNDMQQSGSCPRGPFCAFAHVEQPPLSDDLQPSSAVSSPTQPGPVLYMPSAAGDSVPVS
Oligonucleotide	bound/input enrichment [ratio]
GUGUCCUGCUUUCAACUAUCACUGAGGAGGCAUCUCUACUGUUCUGUGAGCAUCAGGACUGUAGCGCUGUGUCACCACAUGAGAGUUGUUAAGCAGCCUUUCUGUGGAGGGUGGGAAUGA	0.0816
UCUGGUCACACUCGUGUGUAUGGUGUUUGCUUUGUUGACACUUCACUGGGCAAGUUUUUCAUCGGCCAGUUUUCGGAUGACCGCCACUGUUCCAGAUUUAGGACUCUAGUGGCUCACUAU	0.193
CGCUGGCCCAAGCUGAUGGACUCUGAUGGCCUCCAUCUCUCAGGCACGUGUGCCUUCUCUUAGUCCCUGUUUUCGGGUCACAAAGCUUCUCAGUACUGUGGUUUGAAAGCACCAGCUUUG	0.109
AGAGAAAUGAGAAAGAAUCUCACACAAGAAGAGAUGCAAAGAAUGUCUACUAGAGUCCUUUUGGCGACUCUUUCCAUUCCUAUUACUCCUGAGCGAACUGAUAUUGCUCGACUUUUGGAU	0.135
CACACCCUCUUCUGCGGGACCCUCAUCUUGCAGGCCCGGGCCUAUGUGGGACCGCACGUCCUGGCAGUGGUGACUCGCACAGGGUUCUGCACGGCAAAAGGGGGCCUGGUGAGCUCCAUC	0.0866
AUGGUUGUGUCUCUUGAGAUCUAAAAACAAGAUGACUUUUCCUGGCACAUAUUCCAAAGCAAAGACUUUGUUACCUGCUGCUUAUUGUCUAAUUUACAGGGAUAUUUAAUUUUGUCAGGU	0.194
ACCAUUUCUGAAUACACGGCUUUGUGUGUAGUUCACUCUAUGUAUUAAAUUAUUAUUCUGCUUAGCUUAUAAUAAGGAUAAUUGCAUUUAAAGAGGUUACUGAAUGUUACUCUGAAACUU	0.349
GCCACCAGAUCCCAGAAACAUGACCCUUGCUGCCUACAAGGAGAAGAUGAAGGAGCUCCCGCUGGUGUCCUUGUUCUGCUCCUGCUUCCUGGCCGAUCCCCUGAAUAAGUCGUCCUACAA	0.197

Study 2
Target: Sal-like protein 4, full length isoform B (SALL4, Homo sapiens, UniProt Q9UJQ4-2, residues 1-616)
Method: universal PBM
Form: double-stranded DNA, one strand shown
Matrix: in vitro
Concentration: not given
Notes: 8-mer, flanks averaged, mean of replicates
Reading: higher = stronger binding
Construct (chain): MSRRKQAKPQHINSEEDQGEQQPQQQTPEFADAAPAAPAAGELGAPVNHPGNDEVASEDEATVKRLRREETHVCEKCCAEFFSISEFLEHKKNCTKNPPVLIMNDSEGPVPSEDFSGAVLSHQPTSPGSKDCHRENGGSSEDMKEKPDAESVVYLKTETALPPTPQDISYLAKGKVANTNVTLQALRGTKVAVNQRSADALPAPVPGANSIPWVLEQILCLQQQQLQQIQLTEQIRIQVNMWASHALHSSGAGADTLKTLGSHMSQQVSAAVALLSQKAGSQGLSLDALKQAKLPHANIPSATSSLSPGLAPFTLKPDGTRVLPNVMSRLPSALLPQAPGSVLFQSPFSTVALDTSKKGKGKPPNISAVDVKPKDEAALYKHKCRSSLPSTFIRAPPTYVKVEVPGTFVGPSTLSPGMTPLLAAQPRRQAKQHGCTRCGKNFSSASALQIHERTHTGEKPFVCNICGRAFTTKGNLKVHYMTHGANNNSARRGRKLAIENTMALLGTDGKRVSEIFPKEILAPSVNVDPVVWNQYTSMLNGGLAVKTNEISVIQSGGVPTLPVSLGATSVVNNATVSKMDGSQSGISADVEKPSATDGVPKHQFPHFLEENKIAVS
Oligonucleotide	E-score
GCGAGTAA	0.0213
AATTATAG	0.394
ATGTAAGG	0.239
CGCCAAAA	0.0668
ACCAAGAG	-0.129
CCGGCAGA	-0.326
AATTATTG	0.423
CGGGGAGA	-0.402
ACGTGGCG	-0.166
GAACGGAA	-0.0984
AGGAATGC	-0.0925
CGCATTGC	-0.06
ATGGAATG	-0.112
AGTACAAT	0.241
CTGCTCCC	-0.241
AAGGCAAG	-0.0396
CTTCAGAA	-0.0239
GCCCGCGA	-0.315
ACTCGCTA	-0.123
GCTTCCTA	0.187
TCATCTAA	0.0826
GAGACGCC	-0.204
ATCCACAT	0.202
GACAGGGC	-0.333
AAGCATCG	0.0121

Study 3
Target: CCNB3, cyclin fold, Cln2 fusion (human)
Method: yeast growth competition, sequencing
Matrix: yeast
Notes: weak parent motif
Relative to: not given
Reading: higher = stronger binding
Starting sequence: CDKN1C docking peptide (human); TSACRSLFGPVDH; partner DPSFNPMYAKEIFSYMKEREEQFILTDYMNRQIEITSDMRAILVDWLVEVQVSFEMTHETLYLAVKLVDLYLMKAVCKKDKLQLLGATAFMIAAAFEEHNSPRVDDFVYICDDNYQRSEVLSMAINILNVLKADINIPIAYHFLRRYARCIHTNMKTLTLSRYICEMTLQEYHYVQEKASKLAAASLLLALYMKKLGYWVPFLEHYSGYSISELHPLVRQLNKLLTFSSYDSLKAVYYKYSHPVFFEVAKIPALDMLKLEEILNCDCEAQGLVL
Variant	normalised enrichment score
TSACASAFGPVDH [R5A L7A]	-0.0238
TSACRSLFGPADH [V11A]	0.544
TSACKSLFGPVDH [R5K]	0.442
TSAARSLFGPVDH [C4A]	0.195
TSACRALFGPVDH [S6A]	0.354
ASACRSLFGPVDH [T1A]	0.612
TSACRSLFAPVDH [G9A]	0.887
TSACRSLFGPVDA [H13A]	0.343
TSACKSLLGPVDH [R5K F8L]	0.16

Study 4
Target: ABI1, truncated, D143A, DHFR fusion (Arabidopsis thaliana)
Method: DHFR PCA, deep sequencing
Matrix: yeast
Notes: methotrexate growth selection, single substitutions
With: (+)-ABA 58 µM
Relative to: wild-type fitted maximum
Reading: higher = stronger binding
Starting sequence: PYL1, truncated, DHFR fusion (Arabidopsis thaliana); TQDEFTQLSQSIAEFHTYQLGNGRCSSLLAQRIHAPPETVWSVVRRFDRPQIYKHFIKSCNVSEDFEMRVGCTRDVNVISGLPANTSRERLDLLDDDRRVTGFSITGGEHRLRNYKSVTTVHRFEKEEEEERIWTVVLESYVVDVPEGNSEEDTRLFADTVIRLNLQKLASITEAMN; partner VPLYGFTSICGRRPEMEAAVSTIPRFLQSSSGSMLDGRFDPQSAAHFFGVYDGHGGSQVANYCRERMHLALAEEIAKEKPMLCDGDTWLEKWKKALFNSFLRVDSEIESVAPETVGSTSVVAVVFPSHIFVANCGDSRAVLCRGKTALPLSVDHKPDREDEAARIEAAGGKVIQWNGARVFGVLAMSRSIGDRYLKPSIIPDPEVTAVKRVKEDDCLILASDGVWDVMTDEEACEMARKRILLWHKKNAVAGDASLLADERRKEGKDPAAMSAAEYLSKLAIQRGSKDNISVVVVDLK
Variant	relative binding score
N114G	91.4%
A158R	1.78%
A84E	14%
E139G	2.47%
A30D	50.1%
E109R	69.8%
Y141W	25.8%
K58R	85.5%
G21K	94%
I12L	63.8%
I105K	-13.6%
R98V	65.3%
V142E	83.8%
V76R	-5.67%
F66G	85.7%
E125G	87.5%

Study 5
Target: Histone acetyltransferase KAT6A, winged helix 2, GST fusion (KAT6A, Homo sapiens, UniProt Q92794, residues 85-181)
Method: protein binding microarray
Form: double-stranded DNA, one strand shown
Matrix: in vitro
Concentration: not given
Notes: 8-mer, flanks averaged, mean of 2 arrays, mostly near background
Relative to: not given
Reading: higher = stronger binding
Residues (chain): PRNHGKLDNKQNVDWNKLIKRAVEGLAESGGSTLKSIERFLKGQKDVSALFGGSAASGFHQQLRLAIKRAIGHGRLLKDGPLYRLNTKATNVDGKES
Oligonucleotide	E-score
GCCAGCAC	0.0769
GCAGATTA	-0.0515
CCGCTGCC	0.101
AGTCCCGA	0.00653
AAGTTCTG	-0.113
ATGGCCTA	-0.181
CACGTTTC	-0.118
AATACATC	-0.0603
ACCGCGCT	0.0589
GAGCAGCA	0.247
GTCACATA	-0.0623
AAAGGTTC	0.0689
CACAAGGG	-0.0269
CCGTCCCG	0.115
AAGGCATG	-0.0227
GAAGCTTC	-0.0509
AGGGCTGC	0.0214
GAGGTAAC	0.0315
ACCGCCGT	-0.0492
CTGTTCTA	0.108
GTATGACA	-0.0499
AAGACCAT	-0.168
CATGCAAC	-0.0225

For quick reference, copied from above (study 2):
Oligonucleotide	E-score
GACAGGGC	-0.333
ACGTGGCG	-0.166
CTTCAGAA	-0.0239
ACCAAGAG	-0.129
TCATCTAA	0.0826
AGGAATGC	-0.0925
GCTTCCTA	0.187
